Experimental data from different studies.
A part holds a random share of what one study measured. Substitutions count along the parent as printed.

Set 1
Target: CCNB1, cyclin fold, Cln2 fusion (human)
Method: yeast growth competition, sequencing
Medium: yeast
Setting: strong parent motif
Relative to: not given
Direction: higher = stronger binding
Starting sequence: PKN2 docking peptide (human); VSAVQKLDFSDTM
Change	normalised enrichment score
L7A	0.308
T12N	1.71
L7P	0.261
T12G	2.38
D11K	0.521
S10M	1.16
M13Q	1.74
K6Y	1.04
S2C	1.48
F9E	0.238
V4Q	0.419
D8H	1.09
T12C	2.01
V4W	0.344
V4G	-0.763
K6H	1.48
L7K	-0.0622
A3D	-0.549
K6I	0.397
T12Y	2.27
F9S	0.709
D8P	0.676
V1G	2.33
T12L	1.97

Set 2
Target: Interferon regulatory factor 7, full length, phosphomimetic (IRF7, Homo sapiens, UniProt Q92985, residues 1-503, S101K/S471D/S472D/S475D/S476D/S477D/S483D/S484D/S487D)
Method: protein-binding microarray
Molecule type: double-stranded DNA, one strand shown
Medium: in vitro
Tested at: 250 nM
Setting: 60-bp whole probe
Together with: salmon DNA 0.4 mg/ml
Relative to: random background probes
Direction: higher = stronger binding
Constant ends, left off below: GCCTAGCAC … GTCTTGATTCGCTTGACGCTGCTG
Construct (chain): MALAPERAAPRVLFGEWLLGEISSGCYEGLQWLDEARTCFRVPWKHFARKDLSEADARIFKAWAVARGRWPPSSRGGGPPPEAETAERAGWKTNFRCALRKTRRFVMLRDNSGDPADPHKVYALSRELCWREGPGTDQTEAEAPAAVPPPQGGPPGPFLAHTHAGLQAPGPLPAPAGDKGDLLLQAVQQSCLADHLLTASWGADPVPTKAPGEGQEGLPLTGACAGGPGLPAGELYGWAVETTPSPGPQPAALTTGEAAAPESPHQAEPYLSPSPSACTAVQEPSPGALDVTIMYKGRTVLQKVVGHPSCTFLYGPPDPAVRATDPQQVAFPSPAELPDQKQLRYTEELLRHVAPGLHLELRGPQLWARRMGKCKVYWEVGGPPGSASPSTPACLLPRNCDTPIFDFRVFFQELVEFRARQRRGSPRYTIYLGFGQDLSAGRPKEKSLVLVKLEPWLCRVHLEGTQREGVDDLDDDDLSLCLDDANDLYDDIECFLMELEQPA
Sequence	log fluorescence [z-score]
TCATTTTTTGGAATGTCACTGTGCTAG	0.632
CCCTGAGTCCCTTGGGCCTTGTGCTAG	-0.642
TTAGGTATCGGAATGGGTTAGTGCTAG	1.45
GACGATATCCGTATCGAGACGTGCTAG	0.171
GGCATTTTCGGGTAGATGGCCGTGCTA	0.71
GCCGGTATCCTTATCCTGACGTGCTAG	0.393
TACGGTTTCGACTTTCGGGACGTGCTA	11
GTCGGACTGGGTTTCGGGACGTGCTAG	2.31
TTAGCTTTCGGGACTGGGTTAGTGCTA	0.309
TTAGGTCTCCTTCTCCGTTAGTGCTAG	0.386
GAAGGTTTCGACTATCGGGACGTGCTA	5.21
GACGCTATCGACACTGGGGACGTGCTA	0.201
TCAAATTTTTTTTCTAAACTGTGCTAG	0.268
TTCATTTTCTGAATGTCCTCGTGCTAG	1.42
CTAATTTTGAGACTCATGGGGTGCTAG	0.73
CTAGATATCAGTCTCGATTAGTGCTAG	2.01
TTAGATTTCAGTTTCAATTAGTGCTAG	2.09

Set 3
Target: Phosphate system positive regulatory protein PHO4, full length, GST-tagged (PHO4, Saccharomyces cerevisiae, UniProt P07270, residues 1-312)
Method: competition protein-binding microarray
Molecule type: double-stranded DNA, one strand shown
Medium: in vitro
Tested at: 2 µM
Setting: whole 60-bp probe, lowest competitor level
Together with: Cbf1 competitor, 0.05 µM
Direction: higher = stronger binding
Residues (chain): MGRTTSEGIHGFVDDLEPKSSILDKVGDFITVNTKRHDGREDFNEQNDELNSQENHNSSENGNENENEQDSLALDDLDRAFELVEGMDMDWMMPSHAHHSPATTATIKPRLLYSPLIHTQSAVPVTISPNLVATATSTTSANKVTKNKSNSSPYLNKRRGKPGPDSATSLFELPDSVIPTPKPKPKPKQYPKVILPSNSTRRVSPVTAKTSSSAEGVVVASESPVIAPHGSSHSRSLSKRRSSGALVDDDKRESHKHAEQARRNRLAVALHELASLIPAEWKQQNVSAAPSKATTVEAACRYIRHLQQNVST
Sequence	fluorescence intensity [a.u.]
TCAAGAAATTTAGCTCGCGTGGCCGAATGGCAACGCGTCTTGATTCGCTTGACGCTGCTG	6830
TACAGTTGGGTCCATCACATGCAAACATTTCTCCAAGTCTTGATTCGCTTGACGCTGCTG	7750
CTAACGAAGGTTTGGTATGTGGGTGACAAGCCAAGTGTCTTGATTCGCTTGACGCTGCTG	4800
CCGGTTTTTATTCCTCCCGTGGTCGTTGTCTCTACCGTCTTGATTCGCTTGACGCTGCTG	6170
GGAATTCCAGCACCACTCGTGCAAAACGTACCAAATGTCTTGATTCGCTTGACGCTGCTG	8110
GCACTTAAGGTAAGGCGCATGATGTACCTGTTTTATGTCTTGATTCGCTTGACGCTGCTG	6730
TTACTATTTGTGTCCCACGTGCTTTATTGTCTTATGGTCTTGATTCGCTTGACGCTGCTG	18100
CATACCCAACCTTGCATGGTGGGTGAAGATATTTGTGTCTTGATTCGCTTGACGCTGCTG	5790
TGCGCAATGGAGAAACACGGGTGGCATAGGTCTGCGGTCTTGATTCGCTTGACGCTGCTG	7000
CCCACATATATACCGATGTTGATAAACACCATTAAAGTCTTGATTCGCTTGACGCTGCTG	4300
GGAGTTGATGTGTCTAGTGTGACAGGTTCATTTGCCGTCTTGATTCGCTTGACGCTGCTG	4310
CAATCCGCAATTTAGCACGTGCCAGATCCCACCGACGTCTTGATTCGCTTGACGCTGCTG	19300
AAAGCGGTAATTTGTCACAAGACTTCACATATCTATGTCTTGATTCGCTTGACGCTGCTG	3940
TATAAGTATCCTTCAGACGTGCAAATTCTTCAGGGCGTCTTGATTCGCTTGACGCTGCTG	4950
CTAACGAAGGTTTGGCACGTGGGTGACAAGCCAAGTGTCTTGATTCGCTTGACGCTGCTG	14900
GTCTTGTCTCATTGGATGGTGGGTGTCCCCACTTCAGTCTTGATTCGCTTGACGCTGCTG	5710
TGCGCAACAACTTGTGGTGTGGGTGTATGTCTAGAAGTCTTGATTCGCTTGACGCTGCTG	6410
CATACCCAACCTTGCATCGTGGGTGAAGATATTTGTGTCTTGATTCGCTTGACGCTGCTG	13500
TGGCTTTGCTAACGACATGCGTGAAGAAAAGCGGTAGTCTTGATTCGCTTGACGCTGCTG	6170

Set 4
Target: RNA binding protein fox-1 homolog 2, RRM domain, GST-SBP tag (RBFOX2, Homo sapiens, UniProt O43251-10, residues 100-194)
Method: RNA Bind-n-Seq
Molecule type: RNA
Medium: in vitro
Tested at: 365 nM
Setting: natural RNA segment, single round, ends assumed
Relative to: no-protein control
Direction: higher = stronger binding
Sequence	RBNS enrichment (R)
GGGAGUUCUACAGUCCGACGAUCAUUGAGAAUAUAAAGAACAGUGCCUUAGAAGACAGUGAAAGGUAAGCUCUAGCUUAAUGUCUAUGAUUUGUUCUUUGACAUUAAGGAAGGUAAGGAUUGGUCAGAGGAUGUGGAAUUCUCGGGUGCCAA	0.42
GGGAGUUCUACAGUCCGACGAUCAAAGGCCUGGAUAUGGUUUCUAAAAUCUCAGCUGAGAACUUCAGAAAACAGCAGCAGUAUUUUCCUUUUCCUAGUGCUAAAAUCCCUUUCCCUAGAAAUUGGCUCACCUUUGGAAUUCUCGGGUGCCAA	0.647
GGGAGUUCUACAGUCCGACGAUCCCCUUUCACUGCCCCAGUGGUGUAAGUGGAGGGCCAGGGACCCUGCAAUUGUACCUGCUCCUCAUCCUAUCCCCCACCCGCUUCCUUCCCCCAUUAAACCUCUAUCCGCCUGGAAUUCUCGGGUGCCAA	0.641
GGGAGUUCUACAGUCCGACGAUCCGGUCCUGGGCUCUCACCGGGGUCUGUCAUUGGCUCUGCACAGGCUGCAUGAACCCACGCACCUGUCCCUGACCUGCUGCUCUGGUCUCCUCACUAGCUCCAAUGUUCCCUGGAAUUCUCGGGUGCCAA	1.03
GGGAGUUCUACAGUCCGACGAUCCAUAUUGUGUGAUACUUGAAGAGAUAAAAGGGACUUACCAGCCCUUAAUUGAAAUCUAAGCUUUUUACCGCUUUCCCCUCCUUGCCCUCUCUCCUCCCUUCUGCCCUCCUUGGAAUUCUCGGGUGCCAA	0.701
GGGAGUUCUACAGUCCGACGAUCGAAGAAAAAAACAUGGUAGGGAAGGAGCUCUGCUGCCUCUUUGCCCUACAACCAUGGCAUUGCAAAAAUAACCACCUUUUUCUUUUUUUAAAUAAACUUUAUUUAAGUCAUGGAAUUCUCGGGUGCCAA	0.656
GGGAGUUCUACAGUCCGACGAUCUUCAGGACUGUUCCUUGGUGUUUGAGGGAAACUUUAGUGGGAUUGCAGUGGAAUGUAAGGUCAGGGCACGUGGGUGCUCUCUCGGGGUGGGGUGACUGGGAGACCUAGAGUGGAAUUCUCGGGUGCCAA	1.5
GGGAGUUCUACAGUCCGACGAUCCCCUGGUCUUAUAAGGGGAGGAGAGUUCAGCCCAGCACCAUAAUGCUUUAAAAAAAAAAAUUUUUUUUUUUUAACGAAUUGCUGUUCUGUCCAGAGGUUUUUAAAACUGGUGGAAUUCUCGGGUGCCAA	0.386

Repeated from above (set 4):
Sequence	RBNS enrichment (R)
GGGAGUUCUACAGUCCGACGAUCCCCUUUCACUGCCCCAGUGGUGUAAGUGGAGGGCCAGGGACCCUGCAAUUGUACCUGCUCCUCAUCCUAUCCCCCACCCGCUUCCUUCCCCCAUUAAACCUCUAUCCGCCUGGAAUUCUCGGGUGCCAA	0.641
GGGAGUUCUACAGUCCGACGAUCCGGUCCUGGGCUCUCACCGGGGUCUGUCAUUGGCUCUGCACAGGCUGCAUGAACCCACGCACCUGUCCCUGACCUGCUGCUCUGGUCUCCUCACUAGCUCCAAUGUUCCCUGGAAUUCUCGGGUGCCAA	1.03
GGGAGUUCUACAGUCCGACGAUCCAUAUUGUGUGAUACUUGAAGAGAUAAAAGGGACUUACCAGCCCUUAAUUGAAAUCUAAGCUUUUUACCGCUUUCCCCUCCUUGCCCUCUCUCCUCCCUUCUGCCCUCCUUGGAAUUCUCGGGUGCCAA	0.701
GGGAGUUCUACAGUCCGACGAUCGAAGAAAAAAACAUGGUAGGGAAGGAGCUCUGCUGCCUCUUUGCCCUACAACCAUGGCAUUGCAAAAAUAACCACCUUUUUCUUUUUUUAAAUAAACUUUAUUUAAGUCAUGGAAUUCUCGGGUGCCAA	0.656
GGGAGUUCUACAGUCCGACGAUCUUCAGGACUGUUCCUUGGUGUUUGAGGGAAACUUUAGUGGGAUUGCAGUGGAAUGUAAGGUCAGGGCACGUGGGUGCUCUCUCGGGGUGGGGUGACUGGGAGACCUAGAGUGGAAUUCUCGGGUGCCAA	1.5
